Experimental data pooled from the literature.
Every numbered part comes from another study and shows a few of its results, in no order.

Block 1 — technique: RNA Bind-n-Seq; molecule type: RNA; medium: in vitro; tested at: not given; baseline: input RNA pool; reading: higher = stronger binding
Target: RING finger protein unkempt homolog, zinc fingers 1-6, GST-SBP tag (UNK, Homo sapiens, UniProt Q9C0B0, residues 30-357)
Chain of UniProt Q9C0B0 (30-357, looked up): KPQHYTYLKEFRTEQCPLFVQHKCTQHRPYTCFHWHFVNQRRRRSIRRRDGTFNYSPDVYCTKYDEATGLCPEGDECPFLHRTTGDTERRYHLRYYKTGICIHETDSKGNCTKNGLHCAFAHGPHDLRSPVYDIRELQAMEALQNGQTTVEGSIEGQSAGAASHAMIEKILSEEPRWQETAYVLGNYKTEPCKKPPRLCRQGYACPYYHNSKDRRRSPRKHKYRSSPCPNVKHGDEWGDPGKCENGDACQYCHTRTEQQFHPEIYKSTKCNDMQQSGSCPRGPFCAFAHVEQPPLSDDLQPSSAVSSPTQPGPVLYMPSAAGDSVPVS
Setting: RNA with constant flanks, human-mouse chimeric sites, ends assumed
`GGGAGUUCUACAGUCCGACGAUCUUGAAAACAAACUGAUUUAAGUUUGAGUAUCACAAUGUUAGCUUUCUAAUUCCACACAAGUACUUGGUUUUUACAGUUUAUAAUCUGACAUCACCCCAGCGCCAUUUGUAAAGAGCAACUCAACAGAGGAUUGAGCAUCA` has a bound/input enrichment of 0.47 ratio.
The bound/input enrichment of `GGGAGUUCUACAGUCCGACGAUCGUAGCUGGCCAUUAGGAAGAAUGCUGAAUUUCAGUCACUUGCUGAUGACUUCUGAUGUCCCAGCAAAUGUUGGCAUUGUUGACUGCUGAGAAGAUACUUCUGAGGACCCACGUCUAAGGUCAACAGAGGAUUGAGCAUCA` is reported as 0.244 ratio.
For `GGGAGUUCUACAGUCCGACGAUCUCAACUGACAACAUCAAAUACCAGCCUAAAGGGGGGCAGGUACAAAUUGUUACCAAGAAAAUAGACCUAAGCCAUGUGACAUCCAAAUGUGGCUCUCUGAAGAACAUCCGCCACAGGCCACAACAGAGGAUUGAGCAUCA`, the bound/input enrichment was 0.538 ratio.

Block 2 — technique: protein binding microarray; molecule type: double-stranded DNA, one strand shown; medium: in vitro; tested at: not given; baseline: not given; reading: higher = stronger binding
Target: Histone acetyltransferase KAT6A, winged helix 2, GST fusion (KAT6A, Homo sapiens, UniProt Q92794, residues 85-181)
Setting: 8-mer, flanks averaged, mean of 2 arrays, mostly near background
Residues (chain): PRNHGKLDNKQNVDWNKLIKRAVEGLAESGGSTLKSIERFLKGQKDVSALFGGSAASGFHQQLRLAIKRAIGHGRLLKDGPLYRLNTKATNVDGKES
`GACGTGTA` gave an E-score of -0.321.
`AATCCTGC` gave an E-score of 0.0384.
For `TGTTACAA`, the E-score was 0.103.
`GACGGAAA` has an E-score of -0.0601.
`CAACACTG` has an E-score of -0.0559.

Block 3 — technique: aptamer microarray, sandwich; molecule type: DNA with 2'F-ANA; medium: in vitro; tested at: 200 nM; together with: Cy3 exosite-II aptamer, 400 nM; reading: higher = stronger binding; oligonucleotide: GGTTGGTGTGGTTGG
Target: Prothrombin, mature alpha-thrombin (F2, Homo sapiens, UniProt P00734)
Setting: whole 15-mer aptamer, many near background
For `2'F-ANA at 1 2 4 6 7 8 9 11 14 15`, “mean fluorescence intensity” read 48.7 a.u.
`2'F-ANA at 1 3 4 6 7 10 12 13 15` — result for “mean fluorescence intensity”: 66.6 a.u.
Under “mean fluorescence intensity”, `2'F-ANA at 3 6 8 9 10 11 12 13` is recorded as 485 a.u.
Under “mean fluorescence intensity”, `2'F-ANA at 2 3 4 5 6 8 10 11 13 14` is recorded as 53.7 a.u.
`2'F-ANA at 1 3 4 5 11` — result for “mean fluorescence intensity”: 54.1 a.u.

Mixed results
The fold induction of `PhoQ, residues 284 288 289 292 302 303 SLCLSL` is reported as 19.2 (PhoP, residues 12 14 15 18 19 AGCRL (Escherichia coli, UniProt P23836); Sort-seq, measured: YFP reporter; E. coli; PhoQ-PhoP variant library, together with: 10 µM Mg2+; baseline: high Mg2+ state, higher = stronger signaling).

Some of these lines once more (block 3):
Under “mean fluorescence intensity”, `2'F-ANA at 2 3 4 5 6 8 10 11 13 14` is recorded as 53.7 a.u.
